Measured values from different studies.
Lines come from different studies, so protocols differ. Numbers after ± are the reported error.
Nuclear receptor subfamily 2 group C member 2 ligand-binding domain: Nuclear receptor subfamily 2 group C member 2, ligand-binding domain (Homo sapiens, UniProt P49116)
UniProt P49116, sequence (whole entry, looked up): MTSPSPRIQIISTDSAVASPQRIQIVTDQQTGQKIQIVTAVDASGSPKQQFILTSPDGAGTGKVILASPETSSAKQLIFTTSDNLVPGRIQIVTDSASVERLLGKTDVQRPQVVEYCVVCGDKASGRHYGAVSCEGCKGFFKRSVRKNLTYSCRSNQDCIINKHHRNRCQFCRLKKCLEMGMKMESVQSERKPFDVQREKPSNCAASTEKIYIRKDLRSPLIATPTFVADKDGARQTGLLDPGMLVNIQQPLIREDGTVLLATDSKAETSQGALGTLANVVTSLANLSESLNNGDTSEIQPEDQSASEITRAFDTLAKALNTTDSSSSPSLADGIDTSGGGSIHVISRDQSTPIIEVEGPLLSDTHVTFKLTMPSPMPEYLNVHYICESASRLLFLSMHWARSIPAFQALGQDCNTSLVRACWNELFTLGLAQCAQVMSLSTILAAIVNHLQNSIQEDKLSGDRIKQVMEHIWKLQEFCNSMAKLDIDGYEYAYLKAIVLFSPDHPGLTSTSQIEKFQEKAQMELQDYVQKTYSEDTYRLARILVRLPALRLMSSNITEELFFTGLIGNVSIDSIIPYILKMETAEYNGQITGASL
UniProt Q04206, sequence (whole entry, looked up): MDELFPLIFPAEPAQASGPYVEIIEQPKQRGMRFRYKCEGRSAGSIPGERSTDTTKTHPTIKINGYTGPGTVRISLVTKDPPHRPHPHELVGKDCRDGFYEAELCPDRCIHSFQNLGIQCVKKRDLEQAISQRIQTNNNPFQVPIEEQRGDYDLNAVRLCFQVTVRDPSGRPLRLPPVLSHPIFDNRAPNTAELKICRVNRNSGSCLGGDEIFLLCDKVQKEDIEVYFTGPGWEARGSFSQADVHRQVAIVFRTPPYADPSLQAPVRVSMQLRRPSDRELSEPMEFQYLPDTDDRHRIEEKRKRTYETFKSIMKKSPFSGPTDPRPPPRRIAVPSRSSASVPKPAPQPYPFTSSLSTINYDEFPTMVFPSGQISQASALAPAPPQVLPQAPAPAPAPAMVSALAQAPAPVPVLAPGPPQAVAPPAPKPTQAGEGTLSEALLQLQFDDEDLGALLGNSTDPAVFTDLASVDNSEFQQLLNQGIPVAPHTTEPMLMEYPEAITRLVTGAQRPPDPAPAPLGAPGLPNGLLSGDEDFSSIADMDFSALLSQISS
UniProt P61981, sequence (whole entry, looked up): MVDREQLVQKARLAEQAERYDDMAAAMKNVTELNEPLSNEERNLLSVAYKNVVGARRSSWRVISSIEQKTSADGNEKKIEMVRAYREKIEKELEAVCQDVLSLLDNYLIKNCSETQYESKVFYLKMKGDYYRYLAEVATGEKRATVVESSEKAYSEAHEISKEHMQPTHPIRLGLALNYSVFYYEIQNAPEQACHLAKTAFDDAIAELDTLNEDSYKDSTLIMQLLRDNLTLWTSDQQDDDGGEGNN

For COc1ccc(NC(=S)N/N=C/c2cccc3cc4ccccc4nc23)cc1, “S phase cells” read 24.9 ± 1% (HeLa; PI flow cytometry; IC12.5, 48 h, with: N-acetylcysteine).
Under “log2 fold change”, CCc1cnc(N2CCC(c3nc(COc4ccc(-n5cnnn5)cc4)cs3)CC2)nc1 is recorded as 0.945 (HEK293T; RNA-seq, refers to: SLC1A4 mRNA; 10 µM, 6 h; reference: vehicle).
Under “fold change in expression”, Cn1cc(-c2ccc(-c3cncc(Cl)c3N3CCC4(CCNC4=O)CC3)cc2)cn1 is recorded as 3.99 (COLO 205; microarray, refers to: NEAT1; concentration not given, 6 h; reference: untreated cells).
Nc1nc(OCc2cc(Br)cs2)c2[nH]cnc2n1 gave a viability of 91.3% (OCI-Ly1; 1 µM, 120 h).
The EC50 of CCn1cc(-c2cc(Cn3ccoc3=N)cc3c2CCN([C@@H](C)c2cc(OC)ccn2)C3=O)c(C(F)(F)F)n1 is reported as 0.00521 µM (G-361; cell growth, inhibitor; 120 h).
With CCCCN1CCN(c2ccc3[nH]c(-c4ccc5[nH]c(-c6ccc(OCC)cc6)nc5c4)nc3c2)CC1 the growth percent was 75.3% (786-0; cell growth, NCI-60 SRB; 10 µM, 48 h).
With COc1cc([C@@H]2c3cc4c(cc3[C@@H](O[C@@H]3O[C@@H]5CO[C@@H](C)O[C@H]5[C@H](O)[C@H]3O)[C@H]3COC(=O)[C@H]23)OCO4)cc(OC)c1O the viability was 7.79% (OCI-Ly1; 1 µM, 120 h).
Under “surface marker level”, Nc1cccc2c1C(=O)N(C1CCC(=O)NC1=O)C2=O (centres unmarked) is recorded as 57.3% (RPMI-8226; flow cytometry, refers to: CD91; concentration not given; reference: comparator compound alone).
The viability of COc1cc2c(NC3CCN(C4CCCCC4)CC3)nc(N3CCCN(C(C)C)CC3)nc2cc1OCCCN1CCCCC1 is reported as 129% (OCI-Ly1; 0.5 µM, 120 h).
CNC(=O)c1cc(Oc2ccc(NC(=O)Nc3ccc(Cl)c(C(F)(F)F)c3)c(F)c2)ccn1 has a Kd of 0.00331 µM (Nuclear receptor subfamily 2 group C member 2 ligand-binding domain; SPR imaging).
For COc1cc(/C=C/C(=O)N2CCC=CC2=O)cc(OC)c1OC, the mRNA level was 129 ± 18.3% (MDA-MB-468; quantitative RT-PCR, refers to: GGT5; 30 µM, 8 h; reference: untreated cells).
The viability of O=C1CCc2c(ccc3ccccc23)O1 is reported as 183% (OCI-Ly1; 0.1 µM, 120 h).
The phototherapeutic index of [Cl-].[Cl-].[Ru+2].c1cnc2c(c1)ccc1cccnc12.c1cnc2c(c1)ccc1cccnc12.c1csc(-c2ccc(-c3ccc(-c4nc5c6cccnc6c6ncccc6c5[nH]4)s3)s2)c1 is reported as 370 (SK-MEL-28; normoxia, with: green light 523 nm).
With CCN(CC)Cc1ccc2cc(COC(=O)Nc3ccc(C(=O)NO)cc3)ccc2c1 the viability was 4.12% (OCI-Ly1; 0.5 µM, 120 h).
For COc1cccc(CN(CCN(CCN(C)C)Cc2ccccc2)Cc2ccccc2)c1, “cells in G1 phase” read 92% (WI-38 quiescent cells; 10 µM, 21 h, cell cycle re-entry, with: 10% FBS).
With O=C(Nc1nnc2n3c(Cc4ccccc4)n[nH]c3nc(-c3ccc(Cl)cc3)c1-2)c1ccccc1 the growth percent was 96.8% (786-0; NCI60 SRB; 10 µM).
With Cc1cc(Nc2ccc(NC(=O)c3ccc(Nc4ccnc5ccccc45)cc3)cc2)nc(N)n1 the viability was 25.2% (OCI-Ly1; 0.5 µM, 120 h).
For COc1cc(/C=C/c2ccc(O)cc2)cc(OC)c1, “fitted bottom MyBP-C level” read 0% (iPSC-derived cardiomyocytes; concentration-response fit; concentration not given; reference: vehicle).
Cc1nc(C(F)(F)F)ccc1C(=O)Oc1cc(C=O)ccc1[N+](=O)[O-] has an EC50 of over 1000 µM (YWHAG/RELA, phospho-Ser45 p65 peptide (Homo sapiens, UniProt P61981+Q04206); ternary complex formation, stabilizer, fluorescence anisotropy).
For O=C(Nc1ccc2c(O)cc(S(=O)(=O)O)cc2c1)Nc1ccc2c(O)cc(S(=O)(=O)O)cc2c1, the viability was 150% (OCI-Ly1; 1 µM, 120 h).
For OCc1nc2ccc(NCc3ccc(C(F)(F)F)cc3)cc2[nH]1, the viability was 132 ± 4.28% (sample A patient iPSC-derived NPCs; MTS; 10 µM, 24 h; reference: vehicle).
C[C@H]1[C@H](C)CC[C@]2(C)CC[C@]3(C)C(=CC(=O)[C@@H]4[C@@]5(C)CC[C@@H](O)[C@](C)(C(=O)NCc6cn(-c7cccc(Br)c7)nn6)[C@@H]5CC[C@]43C)[C@H]12: “PD-1 positive cells” 22.1% (human PBMCs; flow cytometry; 5 µM; reference: CD8+ T cells).
The Kd of O=C(c1ccc(OCCN2CCCCC2)cc1)c1c(-c2ccc(O)cc2)sc2cc(O)ccc12 is reported as 0.00133 µM (Nuclear receptor subfamily 2 group C member 2 ligand-binding domain; SPR imaging).
The EC50 of COc1cnc2cccc(N3CCc4c(cc(Cn5ccnc5C)cc4-c4cn(C)nc4C(F)(F)F)C3=O)c2c1 is reported as 0.0643 µM (MV4-11; cell growth, inhibitor; 120 h).
O=C(O)c1ccc(C(=O)O)cc1 gave an Emax of 12.4% (human cells; reporter gene, agonist, luciferase reporter; reference: positive control).
With COc1cc2ncnc(Nc3ccc(Oc4ccccc4)cc3C)c2cc1OC.O=C(O)C(F)(F)F the fractional effect was 6% (COLO 205 (BRAF V600E); resazurin; 0.3 µM, 72 h, with: trametinib 0 nM).

For quick reference, copied from above:
The phototherapeutic index of [Cl-].[Cl-].[Ru+2].c1cnc2c(c1)ccc1cccnc12.c1cnc2c(c1)ccc1cccnc12.c1csc(-c2ccc(-c3ccc(-c4nc5c6cccnc6c6ncccc6c5[nH]4)s3)s2)c1 is reported as 370 (SK-MEL-28; normoxia, with: green light 523 nm).
With CCN(CC)Cc1ccc2cc(COC(=O)Nc3ccc(C(=O)NO)cc3)ccc2c1 the viability was 4.12% (OCI-Ly1; 0.5 µM, 120 h).
For COc1cccc(CN(CCN(CCN(C)C)Cc2ccccc2)Cc2ccccc2)c1, “cells in G1 phase” read 92% (WI-38 quiescent cells; 10 µM, 21 h, cell cycle re-entry, with: 10% FBS).
